Assay results from different studies.
Every numbered part comes from another study and shows a few of its results, in no order. Several values in a cell are separate wells, animals, samples, runs or records.
Sequence of UniProt P00519 (whole entry, unmodified, looked up): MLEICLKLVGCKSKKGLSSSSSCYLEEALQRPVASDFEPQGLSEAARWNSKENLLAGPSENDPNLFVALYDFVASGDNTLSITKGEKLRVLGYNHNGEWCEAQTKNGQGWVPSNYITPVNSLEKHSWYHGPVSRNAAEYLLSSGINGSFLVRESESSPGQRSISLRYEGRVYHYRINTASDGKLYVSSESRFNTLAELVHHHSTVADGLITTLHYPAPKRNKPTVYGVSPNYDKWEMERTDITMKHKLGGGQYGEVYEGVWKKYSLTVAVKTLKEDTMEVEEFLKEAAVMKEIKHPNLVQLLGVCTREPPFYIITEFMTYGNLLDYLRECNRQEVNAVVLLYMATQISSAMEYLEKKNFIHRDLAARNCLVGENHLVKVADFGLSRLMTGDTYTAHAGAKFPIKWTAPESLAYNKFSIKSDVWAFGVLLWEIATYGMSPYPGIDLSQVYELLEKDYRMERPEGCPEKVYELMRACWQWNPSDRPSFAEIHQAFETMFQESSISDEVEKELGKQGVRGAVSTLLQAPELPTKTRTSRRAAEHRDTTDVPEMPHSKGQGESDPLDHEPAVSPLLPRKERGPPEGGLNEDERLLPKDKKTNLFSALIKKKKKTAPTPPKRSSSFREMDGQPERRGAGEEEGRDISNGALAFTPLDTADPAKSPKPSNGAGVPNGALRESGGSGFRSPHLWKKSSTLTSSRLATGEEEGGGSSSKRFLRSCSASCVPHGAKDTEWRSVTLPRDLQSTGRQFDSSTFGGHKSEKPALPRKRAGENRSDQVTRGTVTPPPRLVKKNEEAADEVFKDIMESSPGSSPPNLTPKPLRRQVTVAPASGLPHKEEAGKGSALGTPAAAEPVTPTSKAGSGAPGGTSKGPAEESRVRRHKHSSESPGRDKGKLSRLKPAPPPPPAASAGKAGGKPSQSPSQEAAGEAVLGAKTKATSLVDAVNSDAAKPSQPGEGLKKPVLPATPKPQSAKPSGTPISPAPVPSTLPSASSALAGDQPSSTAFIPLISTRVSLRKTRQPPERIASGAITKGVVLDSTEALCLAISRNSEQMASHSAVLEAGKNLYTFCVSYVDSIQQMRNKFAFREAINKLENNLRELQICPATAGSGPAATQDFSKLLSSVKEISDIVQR
Sequence of UniProt O43353 (whole entry, looked up): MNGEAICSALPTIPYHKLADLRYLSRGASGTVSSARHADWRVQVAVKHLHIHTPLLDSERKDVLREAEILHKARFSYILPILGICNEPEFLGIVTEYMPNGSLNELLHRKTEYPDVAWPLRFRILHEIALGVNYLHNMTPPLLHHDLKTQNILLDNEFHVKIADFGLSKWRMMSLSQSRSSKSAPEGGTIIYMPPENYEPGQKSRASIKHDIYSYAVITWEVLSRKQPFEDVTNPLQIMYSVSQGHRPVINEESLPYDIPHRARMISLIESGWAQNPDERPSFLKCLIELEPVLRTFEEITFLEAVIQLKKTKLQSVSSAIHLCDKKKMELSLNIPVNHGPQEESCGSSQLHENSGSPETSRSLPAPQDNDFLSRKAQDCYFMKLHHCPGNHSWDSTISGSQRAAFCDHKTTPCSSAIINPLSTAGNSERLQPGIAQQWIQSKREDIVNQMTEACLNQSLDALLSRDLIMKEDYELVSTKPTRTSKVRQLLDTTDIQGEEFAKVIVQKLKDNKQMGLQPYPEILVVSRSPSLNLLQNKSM
Sequence of UniProt P45985 (whole entry, looked up): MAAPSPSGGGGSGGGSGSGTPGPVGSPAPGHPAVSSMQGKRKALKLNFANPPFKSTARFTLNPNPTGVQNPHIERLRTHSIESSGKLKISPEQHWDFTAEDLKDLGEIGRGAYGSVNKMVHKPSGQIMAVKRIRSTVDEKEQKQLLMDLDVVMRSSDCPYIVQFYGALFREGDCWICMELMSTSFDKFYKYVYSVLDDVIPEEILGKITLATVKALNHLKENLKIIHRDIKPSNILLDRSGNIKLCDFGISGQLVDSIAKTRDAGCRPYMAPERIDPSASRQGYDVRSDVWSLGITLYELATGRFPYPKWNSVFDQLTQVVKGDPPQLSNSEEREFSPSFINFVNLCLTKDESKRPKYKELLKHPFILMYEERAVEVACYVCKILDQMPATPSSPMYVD

Sample 1 — concentration: 1 µM; quantity: remaining binding
SMILES: Cc1ccc(NC(=O)c2ccnc(C(F)(F)F)c2)cc1-c1cc(OCCO)nc(N2CCOCC2)c1
target = Receptor-interacting serine/threonine-protein kinase 2 (RIPK2, Homo sapiens, UniProt O43353); test = competitive binding panel; how to read = baseline: vehicle; value = 63%
target = Cyclin-dependent kinase 13 (CDK13, Homo sapiens, UniProt Q14004); test = competitive binding panel, item: CDC2L5; how to read = baseline: vehicle; value = 77%
target = Receptor-interacting serine/threonine-protein kinase 1 (RIPK1, Homo sapiens, UniProt Q13546); test = competitive binding panel; how to read = baseline: vehicle; value = 100%
target = Tyrosine-protein kinase ABL1 (ABL1, Homo sapiens, UniProt P00519, Q252H); test = competitive binding scan; value = 99% and 59%
target = Dual specificity mitogen-activated protein kinase kinase 4 (MAP2K4, Homo sapiens, UniProt P45985); test = competitive binding panel, item: MEK4; how to read = baseline: vehicle; value = 99%

Sample 2 — observed: enzyme activity; action: inhibitor; concentration: 77 µM; baseline: untreated; quantity: remaining activity
Target: DNA polymerase theta, ATPase domain (POLQ, Homo sapiens, UniProt O75417)
Sequence of UniProt O75417 (whole entry, unmodified, looked up): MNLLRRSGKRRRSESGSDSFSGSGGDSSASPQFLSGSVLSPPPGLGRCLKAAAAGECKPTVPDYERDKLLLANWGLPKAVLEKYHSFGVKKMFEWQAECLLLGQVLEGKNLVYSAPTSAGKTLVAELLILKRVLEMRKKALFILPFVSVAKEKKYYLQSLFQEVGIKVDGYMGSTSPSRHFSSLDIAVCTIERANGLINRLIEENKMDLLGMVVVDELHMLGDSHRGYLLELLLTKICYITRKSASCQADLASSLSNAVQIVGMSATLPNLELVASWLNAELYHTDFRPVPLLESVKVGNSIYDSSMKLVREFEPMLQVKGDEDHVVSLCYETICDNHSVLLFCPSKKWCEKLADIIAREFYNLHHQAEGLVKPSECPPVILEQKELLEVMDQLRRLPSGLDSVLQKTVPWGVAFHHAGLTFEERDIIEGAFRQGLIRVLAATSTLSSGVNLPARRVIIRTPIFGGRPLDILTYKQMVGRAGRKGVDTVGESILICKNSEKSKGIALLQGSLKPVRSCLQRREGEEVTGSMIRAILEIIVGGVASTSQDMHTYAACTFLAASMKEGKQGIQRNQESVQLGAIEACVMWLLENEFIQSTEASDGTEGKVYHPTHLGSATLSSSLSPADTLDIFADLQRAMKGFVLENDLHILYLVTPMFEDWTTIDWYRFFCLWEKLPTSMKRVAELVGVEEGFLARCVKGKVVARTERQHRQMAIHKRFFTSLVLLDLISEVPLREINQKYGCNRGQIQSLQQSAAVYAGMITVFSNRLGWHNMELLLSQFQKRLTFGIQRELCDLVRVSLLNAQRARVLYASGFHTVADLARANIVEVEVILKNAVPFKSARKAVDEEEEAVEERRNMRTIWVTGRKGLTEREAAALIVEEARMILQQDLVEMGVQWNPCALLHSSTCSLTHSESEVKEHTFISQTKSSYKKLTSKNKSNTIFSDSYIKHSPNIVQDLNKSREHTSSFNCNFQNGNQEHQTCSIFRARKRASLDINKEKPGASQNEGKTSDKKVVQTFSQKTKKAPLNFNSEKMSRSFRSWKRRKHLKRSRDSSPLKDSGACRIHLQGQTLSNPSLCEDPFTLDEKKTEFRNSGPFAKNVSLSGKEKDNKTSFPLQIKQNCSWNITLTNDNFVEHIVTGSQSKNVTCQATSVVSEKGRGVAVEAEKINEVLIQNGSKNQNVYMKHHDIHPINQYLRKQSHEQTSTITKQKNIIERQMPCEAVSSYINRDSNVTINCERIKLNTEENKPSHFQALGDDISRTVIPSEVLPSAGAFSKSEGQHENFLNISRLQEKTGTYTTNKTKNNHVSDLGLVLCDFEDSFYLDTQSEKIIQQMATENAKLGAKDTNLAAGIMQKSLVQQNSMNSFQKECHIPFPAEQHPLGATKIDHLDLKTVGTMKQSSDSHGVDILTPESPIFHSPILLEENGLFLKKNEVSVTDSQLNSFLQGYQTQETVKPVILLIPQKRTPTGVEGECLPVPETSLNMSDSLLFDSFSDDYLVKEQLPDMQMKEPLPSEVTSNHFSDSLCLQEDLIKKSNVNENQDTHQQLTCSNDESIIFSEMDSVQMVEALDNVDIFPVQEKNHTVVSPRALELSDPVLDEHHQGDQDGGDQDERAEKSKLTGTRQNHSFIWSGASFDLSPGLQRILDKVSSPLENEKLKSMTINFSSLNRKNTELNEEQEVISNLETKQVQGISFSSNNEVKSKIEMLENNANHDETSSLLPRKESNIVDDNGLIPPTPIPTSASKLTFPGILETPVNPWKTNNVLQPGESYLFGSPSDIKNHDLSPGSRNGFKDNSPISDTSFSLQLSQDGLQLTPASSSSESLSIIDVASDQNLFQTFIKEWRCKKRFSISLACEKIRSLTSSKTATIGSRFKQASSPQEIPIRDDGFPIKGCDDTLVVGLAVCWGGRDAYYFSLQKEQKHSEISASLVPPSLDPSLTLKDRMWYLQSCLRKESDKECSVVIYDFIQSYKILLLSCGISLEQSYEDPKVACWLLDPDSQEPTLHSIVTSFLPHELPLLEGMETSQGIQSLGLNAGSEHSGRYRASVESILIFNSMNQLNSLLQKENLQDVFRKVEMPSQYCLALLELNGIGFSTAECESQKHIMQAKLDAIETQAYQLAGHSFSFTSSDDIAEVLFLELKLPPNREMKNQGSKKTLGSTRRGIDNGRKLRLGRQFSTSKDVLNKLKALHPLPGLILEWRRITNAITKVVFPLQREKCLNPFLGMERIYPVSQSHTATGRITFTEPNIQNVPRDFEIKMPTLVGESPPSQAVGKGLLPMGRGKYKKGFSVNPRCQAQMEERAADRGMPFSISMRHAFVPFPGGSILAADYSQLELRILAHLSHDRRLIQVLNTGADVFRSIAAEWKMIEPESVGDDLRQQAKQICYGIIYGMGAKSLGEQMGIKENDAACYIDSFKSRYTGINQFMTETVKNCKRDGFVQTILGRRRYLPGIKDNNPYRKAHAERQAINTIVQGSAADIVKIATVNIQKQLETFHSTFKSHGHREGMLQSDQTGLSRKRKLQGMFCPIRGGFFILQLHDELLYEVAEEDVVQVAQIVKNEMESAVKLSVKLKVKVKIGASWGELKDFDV
Compound = CC(=C(CCO)SSCC1CCCO1)N(C=O)Cc1cnc(C)nc1N (stereo in doubt); value = 102%
Compound = Cc1cc(N2CCOCC2)ccc1Nc1nc(NC2CCCCC2)c2[nH]cnc2n1; value = 83.6%
Compound = Cc1cccc(CN2CCN(C(c3ccccc3)c3ccc(Cl)cc3)CC2)c1 (stereo not shown); value = 101%
Compound = CC1Cc2ccccc2N1NC(=O)c1ccc(Cl)c(S(N)(=O)=O)c1 (stereo not shown); value = 100% and 102%

Sample 3 — organism: Plasmodium berghei; action: inhibitor; cell line: Huh-7; strain: liver stage; concentration: 10 µM; time: 24 h; baseline: untreated control; quantity: infection rate
Structure (SMILES) = O=C(O)CCC(=O)c1ccc(-c2ccccc2)cc1; value = 112%
Structure (SMILES) = CCN(CCCCOC(=O)c1ccc(OC)c(OC)c1)C(C)Cc1ccc(OC)cc1 (stereo not shown); value = 76.5%
Structure (SMILES) = NCCc1c[nH]cn1; value = 95.2%
Structure (SMILES) = CCN[C@@H]1C[C@H](N)[C@@H](O[C@H]2OC(CN)=CC[C@H]2N)[C@H](O)[C@H]1O[C@H]1OC[C@](C)(O)[C@H](NC)[C@H]1O; value = 56.8%
Structure (SMILES) = N[C@@H](Cc1cc(I)c(Oc2cc(I)c(O)c(I)c2)c(I)c1)C(=O)O; value = 108%
Structure (SMILES) = Nc1nc(=O)c2c([nH]1)NCC(CNc1ccc(C(=O)N[C@@H](CCC(=O)O)C(=O)O)cc1)N2C=O (stereo partly shown); value = 113%

Other studies, line by line
Compound = Cn1cncc1[C@@](O)(COc1ccc(C#N)cc1-c1ccc(OC(F)(F)F)cc1)c1ccc(C#N)cc1; target = Tyrosine-protein kinase ABL1, phosphorylated (ABL1, Homo sapiens, UniProt P00519, F317I); test = binding; setting = 1 µM; quantity = remaining binding; value = 88%

Some of these lines once more (sample 3):
Structure (SMILES) = N[C@@H](Cc1cc(I)c(Oc2cc(I)c(O)c(I)c2)c(I)c1)C(=O)O; value = 108%
Structure (SMILES) = Nc1nc(=O)c2c([nH]1)NCC(CNc1ccc(C(=O)N[C@@H](CCC(=O)O)C(=O)O)cc1)N2C=O (stereo partly shown); value = 113%
